Measured values from different studies.
Numbered parts are unrelated; each lists some results of a single study.
UniProt P06241, sequence (whole entry, looked up): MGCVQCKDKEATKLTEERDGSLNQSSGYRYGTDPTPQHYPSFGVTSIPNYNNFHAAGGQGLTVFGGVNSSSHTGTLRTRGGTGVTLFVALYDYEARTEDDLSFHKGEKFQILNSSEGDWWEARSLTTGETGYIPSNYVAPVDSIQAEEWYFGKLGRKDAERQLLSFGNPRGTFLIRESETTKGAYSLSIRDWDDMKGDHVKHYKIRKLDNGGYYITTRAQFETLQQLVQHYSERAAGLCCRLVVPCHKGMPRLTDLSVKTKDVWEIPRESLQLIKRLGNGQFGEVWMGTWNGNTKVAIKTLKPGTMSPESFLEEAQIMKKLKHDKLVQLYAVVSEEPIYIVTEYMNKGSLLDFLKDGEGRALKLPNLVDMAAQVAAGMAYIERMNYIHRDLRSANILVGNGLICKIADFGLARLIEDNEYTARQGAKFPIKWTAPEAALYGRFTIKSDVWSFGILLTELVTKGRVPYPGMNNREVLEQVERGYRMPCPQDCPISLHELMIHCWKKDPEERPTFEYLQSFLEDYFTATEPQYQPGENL
UniProt Q5S007, sequence (whole entry, looked up): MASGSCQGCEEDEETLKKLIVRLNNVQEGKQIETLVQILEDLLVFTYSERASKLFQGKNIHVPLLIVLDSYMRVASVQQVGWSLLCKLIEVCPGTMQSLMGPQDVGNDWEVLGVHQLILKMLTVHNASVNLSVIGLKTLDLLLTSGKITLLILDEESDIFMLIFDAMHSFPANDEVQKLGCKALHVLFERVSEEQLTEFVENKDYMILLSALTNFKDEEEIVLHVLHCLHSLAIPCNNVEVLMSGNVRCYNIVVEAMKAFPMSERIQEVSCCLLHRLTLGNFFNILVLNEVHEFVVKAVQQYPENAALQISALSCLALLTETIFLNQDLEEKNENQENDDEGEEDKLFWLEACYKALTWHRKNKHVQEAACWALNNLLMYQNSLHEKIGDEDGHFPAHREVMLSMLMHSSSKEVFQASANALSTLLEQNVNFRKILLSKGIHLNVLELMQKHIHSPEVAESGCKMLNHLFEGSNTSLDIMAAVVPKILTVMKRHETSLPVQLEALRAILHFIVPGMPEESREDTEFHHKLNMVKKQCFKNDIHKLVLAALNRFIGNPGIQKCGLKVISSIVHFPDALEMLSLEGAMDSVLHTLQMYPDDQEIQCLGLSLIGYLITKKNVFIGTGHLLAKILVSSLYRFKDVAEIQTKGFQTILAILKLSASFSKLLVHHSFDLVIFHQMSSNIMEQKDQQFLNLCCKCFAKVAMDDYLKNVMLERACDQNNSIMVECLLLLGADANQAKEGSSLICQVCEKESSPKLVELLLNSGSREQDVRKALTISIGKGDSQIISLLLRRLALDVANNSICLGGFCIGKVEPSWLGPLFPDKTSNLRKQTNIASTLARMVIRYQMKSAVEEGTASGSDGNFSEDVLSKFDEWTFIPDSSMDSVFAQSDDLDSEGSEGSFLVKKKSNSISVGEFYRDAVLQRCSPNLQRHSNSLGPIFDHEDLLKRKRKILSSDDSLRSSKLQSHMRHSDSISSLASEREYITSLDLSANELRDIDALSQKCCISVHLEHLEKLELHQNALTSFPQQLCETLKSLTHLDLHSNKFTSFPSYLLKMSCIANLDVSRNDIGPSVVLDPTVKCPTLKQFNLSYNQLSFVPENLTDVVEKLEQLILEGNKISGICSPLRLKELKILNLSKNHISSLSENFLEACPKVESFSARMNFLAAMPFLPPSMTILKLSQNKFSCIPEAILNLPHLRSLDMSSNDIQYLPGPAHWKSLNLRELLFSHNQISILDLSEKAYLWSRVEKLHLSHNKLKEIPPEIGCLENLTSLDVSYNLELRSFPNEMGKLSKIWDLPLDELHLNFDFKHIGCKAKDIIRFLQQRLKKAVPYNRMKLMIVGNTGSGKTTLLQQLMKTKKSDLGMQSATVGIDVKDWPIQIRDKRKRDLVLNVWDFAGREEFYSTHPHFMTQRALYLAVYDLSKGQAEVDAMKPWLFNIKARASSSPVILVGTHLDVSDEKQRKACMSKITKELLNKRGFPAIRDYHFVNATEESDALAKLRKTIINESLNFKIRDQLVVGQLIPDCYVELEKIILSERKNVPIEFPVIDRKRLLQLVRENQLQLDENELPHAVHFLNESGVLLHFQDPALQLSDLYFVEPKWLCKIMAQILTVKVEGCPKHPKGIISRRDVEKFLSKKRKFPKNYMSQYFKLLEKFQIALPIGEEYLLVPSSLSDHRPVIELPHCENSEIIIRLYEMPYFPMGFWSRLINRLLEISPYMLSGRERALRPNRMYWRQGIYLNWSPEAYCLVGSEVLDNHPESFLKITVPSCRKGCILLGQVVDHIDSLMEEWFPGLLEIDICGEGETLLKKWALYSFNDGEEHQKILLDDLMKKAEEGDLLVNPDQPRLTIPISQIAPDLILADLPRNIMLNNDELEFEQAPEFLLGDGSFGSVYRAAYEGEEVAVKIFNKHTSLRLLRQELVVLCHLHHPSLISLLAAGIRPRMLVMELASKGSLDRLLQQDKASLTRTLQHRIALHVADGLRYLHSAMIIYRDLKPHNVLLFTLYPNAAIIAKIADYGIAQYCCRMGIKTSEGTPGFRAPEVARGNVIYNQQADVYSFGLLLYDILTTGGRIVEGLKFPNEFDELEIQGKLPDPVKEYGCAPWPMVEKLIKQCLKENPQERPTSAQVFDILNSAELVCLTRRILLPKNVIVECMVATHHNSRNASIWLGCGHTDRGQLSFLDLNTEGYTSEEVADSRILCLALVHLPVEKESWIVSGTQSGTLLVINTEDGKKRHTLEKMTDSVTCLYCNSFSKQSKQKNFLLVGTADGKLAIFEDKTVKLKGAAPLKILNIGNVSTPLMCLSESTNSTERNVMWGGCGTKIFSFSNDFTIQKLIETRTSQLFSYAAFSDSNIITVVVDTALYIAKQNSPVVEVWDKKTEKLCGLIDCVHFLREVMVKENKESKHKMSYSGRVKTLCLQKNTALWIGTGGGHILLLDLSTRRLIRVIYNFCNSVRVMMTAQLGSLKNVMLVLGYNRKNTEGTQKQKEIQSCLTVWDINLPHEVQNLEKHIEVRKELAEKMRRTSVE
UniProt P29317, sequence (whole entry, looked up): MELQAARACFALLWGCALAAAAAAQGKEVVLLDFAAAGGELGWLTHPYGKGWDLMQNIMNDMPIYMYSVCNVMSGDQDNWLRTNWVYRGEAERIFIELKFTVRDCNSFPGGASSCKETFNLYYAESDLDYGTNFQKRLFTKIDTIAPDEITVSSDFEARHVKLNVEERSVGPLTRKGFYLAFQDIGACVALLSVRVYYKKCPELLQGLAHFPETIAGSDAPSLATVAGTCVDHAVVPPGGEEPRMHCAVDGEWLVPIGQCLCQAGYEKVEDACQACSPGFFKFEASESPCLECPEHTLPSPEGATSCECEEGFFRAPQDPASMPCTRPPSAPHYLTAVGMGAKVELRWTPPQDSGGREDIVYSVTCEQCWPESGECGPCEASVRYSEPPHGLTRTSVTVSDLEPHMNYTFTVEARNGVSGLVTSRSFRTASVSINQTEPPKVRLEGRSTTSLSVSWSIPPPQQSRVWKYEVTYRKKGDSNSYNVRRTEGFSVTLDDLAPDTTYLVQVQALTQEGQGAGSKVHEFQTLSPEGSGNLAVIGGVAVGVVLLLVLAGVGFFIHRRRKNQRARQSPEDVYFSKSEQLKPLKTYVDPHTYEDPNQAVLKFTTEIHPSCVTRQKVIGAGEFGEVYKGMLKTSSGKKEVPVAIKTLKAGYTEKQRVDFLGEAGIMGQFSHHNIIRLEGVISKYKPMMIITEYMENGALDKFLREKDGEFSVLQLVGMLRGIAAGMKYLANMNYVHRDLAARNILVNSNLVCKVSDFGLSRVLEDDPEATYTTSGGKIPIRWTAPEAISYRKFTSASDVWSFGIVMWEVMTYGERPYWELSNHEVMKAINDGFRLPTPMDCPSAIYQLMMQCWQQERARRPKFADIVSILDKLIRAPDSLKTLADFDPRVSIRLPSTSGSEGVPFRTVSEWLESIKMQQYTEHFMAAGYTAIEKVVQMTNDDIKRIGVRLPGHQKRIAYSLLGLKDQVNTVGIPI

Sample 1
Cell line: mouse MPNST tumor cells
Technique: high-content nuclear imaging
Refers to: cell number
Concentration: 10 µM
Time: 12 h
Notes: mean of 2 replicates
Baseline: plate mean
Reading: higher = more cells
SMILES	nuclei count [z-score]
CN(C)CC[C@@H](c1ccc(Cl)cc1)c1ccccn1	2.75
Cc1cc(NC(=O)Nc2ccc(F)c(F)c2)n(-c2ccccc2)n1	2.52
CCc1c(C)[nH]c2c1C(=O)C(CN1CCOCC1)CC2 (centres unmarked)	0.0903
COc1ccc(CC2NCCc3c2[nH]c2ccc(C)cc32)c(Cl)c1OC (centres unmarked)	1.75
CC(CCc1ccccc1)NCC(O)c1ccc(O)c(C(N)=O)c1 (centres unmarked)	1.86
COC(=O)C(NC(=O)c1cc(-c2ccccc2)nc2ccccc12)c1ccccc1 (centres unmarked)	1.05
CC(=O)c1cc2c(o1)C(=O)c1ccccc1C2=O	-4.99
CC1=C(/C=C/C(C)=C/C=C/C(C)=C/C(=O)O)C(C)(C)CCC1	-2.33
CCN(CC)CCOc1ccc(C(=C(Cl)c2ccccc2)c2ccccc2)cc1	-5.14
CCN(CC)S(=O)(=O)Nc1cccc(-c2ccc3c(NC(=O)C4CC4)n[nH]c3c2)c1	-3.46
COc1cccc(N(C)C(=S)Oc2ccc3c(c2)CCCC3)n1	1.02
CCS(=O)(=O)Nc1ccc2[nH]c(O)c(C(=Nc3ccc(CN4CCCCC4)cc3)c3ccccc3)c2c1	-4.3
NCCC(O)(P(=O)(O)O)P(=O)(O)O	1.21
CC(C)(C)NC(=O)CN1CCC(CNC(=O)c2cc(F)cc(Cl)c2)CC1	0.749
O=C(NC12CC3CC(CC(C3)C1)C2)c1cnc2ccccc2n1	1.2

Sample 2
Target: Serine/threonine-protein kinase N2 (PKN2, Homo sapiens, UniProt Q16513)
UniProt Q16513, sequence (whole entry, looked up): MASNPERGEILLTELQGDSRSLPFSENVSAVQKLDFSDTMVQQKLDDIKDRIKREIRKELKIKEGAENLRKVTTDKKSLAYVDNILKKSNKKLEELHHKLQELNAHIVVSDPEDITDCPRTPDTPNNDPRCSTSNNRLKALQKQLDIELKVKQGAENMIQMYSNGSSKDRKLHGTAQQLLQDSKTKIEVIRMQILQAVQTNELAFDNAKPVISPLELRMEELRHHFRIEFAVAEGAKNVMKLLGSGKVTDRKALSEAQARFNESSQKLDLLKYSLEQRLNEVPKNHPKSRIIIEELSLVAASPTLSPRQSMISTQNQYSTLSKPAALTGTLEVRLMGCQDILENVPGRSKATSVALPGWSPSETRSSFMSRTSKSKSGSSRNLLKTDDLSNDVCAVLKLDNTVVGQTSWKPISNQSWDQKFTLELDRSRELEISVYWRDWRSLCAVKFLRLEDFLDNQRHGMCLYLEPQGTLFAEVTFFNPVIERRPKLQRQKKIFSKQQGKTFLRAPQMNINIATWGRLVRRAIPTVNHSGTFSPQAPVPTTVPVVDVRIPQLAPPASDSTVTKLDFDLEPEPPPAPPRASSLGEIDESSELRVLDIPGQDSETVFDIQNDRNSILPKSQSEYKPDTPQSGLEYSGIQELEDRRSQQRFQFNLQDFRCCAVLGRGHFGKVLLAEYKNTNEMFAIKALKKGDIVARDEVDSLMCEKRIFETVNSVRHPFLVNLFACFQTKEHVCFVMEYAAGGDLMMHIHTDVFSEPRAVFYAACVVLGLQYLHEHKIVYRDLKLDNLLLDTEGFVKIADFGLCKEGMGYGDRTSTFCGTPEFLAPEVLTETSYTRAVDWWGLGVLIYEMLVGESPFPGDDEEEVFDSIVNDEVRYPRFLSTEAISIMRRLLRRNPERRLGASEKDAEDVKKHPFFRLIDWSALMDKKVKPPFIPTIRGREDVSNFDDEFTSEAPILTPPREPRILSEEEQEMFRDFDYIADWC
Observed: enzyme activity
Mode: inhibitor
Concentration: 0.5 µM
Baseline: control
SMILES	remaining activity
c1ccc(-c2[nH]ncc2-c2ccnc3ccccc23)nc1	91.4%
Cc1cc2ncc(-c3ccccc3)nc2cc1C	104%
c1ccc(-c2cnc(Nc3ccc(OCCN4CCCC4)cc3)s2)cc1	97%
Cc1nc2cc3nc(-c4cccs4)cnc3cc2n1C	71%
COc1cc2ncnc(Nc3cccc(Cl)c3)c2cc1OC	89.8%
Cc1cn(-c2cc(NC(=O)c3ccc(C)c(Nc4nccc(-c5cccnc5)n4)c3)cc(C(F)(F)F)c2)cn1	96%
Cn1nc2c3c(cccc31)C(=O)c1ccccc1-2	97.3%
Ic1cccc(CSc2nnc(-c3ccncc3)o2)c1	100%
N#Cc1c(NC(=O)c2cccc3ccccc23)sc2c1CCCC2	103%
O=C1c2ccccc2-c2n[nH]c3cccc1c23	94.2%
CCOc1nc(NC(=O)Cc2cc(OC)ccc2OC)cc(N)c1C#N	99.7%
Nc1cccc(-c2cc3c(Oc4cccc(O)c4)ncnc3[nH]2)c1	72%
O=C1C(Cl)=C(N2C(=O)CCC2=O)C(=O)c2ccccc21	108%
CCN(CC)CCNC(=O)c1c(C)[nH]c(/C=C2\C(=O)Nc3ccc(F)cc32)c1C	89.1%
CN([C@@H](Cc1ccc(OS(=O)(=O)c2cccc3cnccc23)cc1)C(=O)N1CCN(c2ccccc2)CC1)S(=O)(=O)c1cccc2cnccc12	98.6%
CN(C)C[C@H]1CCn2c(c(C3=C(c4cn(C)c5ccccc45)C(=O)NC3=O)c3ccccc32)C1	87%
CCN(CC)CCNC(=O)c1c(C)[nH]c(/C=C2\C(=O)Nc3ccc(Cl)cc32)c1C	84.4%
O=C(Nc1cccc(Nc2nccc(Nc3cccc(C(F)(F)F)c3)n2)c1)C1CC1	89.5%
CCN(CC)C(=O)c1ccc(Nc2nc(OCC3CCCCC3)c3[nH]cnc3n2)cc1	91.8%
O=c1cc(-c2cccc3c2Sc2ccccc2S3)oc(N2CCOCC2)c1	72.9%
COc1cc2ncnc(Nc3ccc(O)c(Br)c3)c2cc1OC	97.2%
COc1cc2c(cc1OC)-c1[nH]nc(Nc3cccc(F)c3)c1C2	92%

Sample 3
SMILES: CC(C)n1cnc(-c2ccc(F)cc2)c1-c1ncc(C(=O)Nc2ccc(N3CCN(C)CC3)cc2)[nH]1
Technique: phase 2a trial
Species: idiopathic pulmonary fibrosis patients
dose	notes	patients with cardiac failure [%]
60 mg once daily	adverse event grade 5	0
30 mg once daily	adverse event grade 5	0
60 mg once daily	adverse event grade 1	0
dose not given	adverse event grade 3, all dose arms pooled	0
30 mg once daily	adverse event grade 3	0
dose not given	adverse event grade 4, all dose arms pooled	0
60 mg once daily	adverse event grade 2	0
dose not given	adverse event grade 1, all dose arms pooled	0
60 mg once daily	adverse event grade 4	0
dose not given	adverse event grade 2, all dose arms pooled	0

Sample 4
Structure (SMILES): CO[C@@H](C)c1c(Nc2ccc([C@@H](N(C)C(=O)C3CCS(=O)(=O)CC3)C(F)(F)F)cc2)cnc2cc(Cl)nn12
Concentration: 1 µM
target	observed	technique	remaining binding [%]
Dual specificity protein kinase CLK1 (CLK1, Homo sapiens, UniProt P49759)	cell-free assay	competition with immobilised ligand	82
Serine/threonine-protein kinase 3 (STK3, Homo sapiens, UniProt Q13188)	cell-free assay	competition with immobilised ligand	100
Ribosomal protein S6 kinase alpha-4, N-terminal kinase domain (RPS6KA4, Homo sapiens, UniProt O75676)	cell-free assay	competition with immobilised ligand	94
Citron Rho-interacting kinase (CIT, Homo sapiens, UniProt O14578)	cell-free assay	competition with immobilised ligand	97
Ephrin type-B receptor 4 (EPHB4, Homo sapiens, UniProt P54760)	cell-free assay	competition with immobilised ligand	100
Serine/threonine-protein kinase 4 (STK4, Homo sapiens, UniProt Q13043)	cell-free assay	competition with immobilised ligand	100
RAF proto-oncogene serine/threonine-protein kinase (RAF1, Homo sapiens, UniProt P04049)	cell-free assay	competition with immobilised ligand	100
Cyclin-dependent kinase 9 (CDK9, Homo sapiens, UniProt P50750)	cell-free assay	competition with immobilised ligand	100
Ephrin type-A receptor 2 (EPHA2, Homo sapiens, UniProt P29317)	cell-free assay	competition with immobilised ligand	83
AP2-associated protein kinase 1 (AAK1, Homo sapiens, UniProt Q2M2I8)	binding		96
Calcium/calmodulin-dependent protein kinase type 1B (PNCK, Homo sapiens, UniProt Q6P2M8)	cell-free assay	competition with immobilised ligand	100
Tyrosine-protein kinase Fyn (FYN, Homo sapiens, UniProt P06241)	cell-free assay	competition with immobilised ligand	95
Mitogen-activated protein kinase 9 (MAPK9, Homo sapiens, UniProt P45984)	cell-free assay	competition with immobilised ligand	76
Leucine-rich repeat serine/threonine-protein kinase 2 (LRRK2, Homo sapiens, UniProt Q5S007)	cell-free assay	competition with immobilised ligand	100
Ephrin type-B receptor 6 (EPHB6, Homo sapiens, UniProt O15197)	cell-free assay	competition with immobilised ligand	100

A few entries again (sample 2):
SMILES	remaining activity
O=C1c2ccccc2-c2n[nH]c3cccc1c23	94.2%
CCOc1nc(NC(=O)Cc2cc(OC)ccc2OC)cc(N)c1C#N	99.7%
Nc1cccc(-c2cc3c(Oc4cccc(O)c4)ncnc3[nH]2)c1	72%
O=C1C(Cl)=C(N2C(=O)CCC2=O)C(=O)c2ccccc21	108%
